Assay results of several laboratories.
Each numbered part is a random draw from the data of one study; scales do not carry over between parts.

Study 1 — method: RNA Bind-n-Seq; molecule type: RNA; sample: in vitro; tested at: 365 nM; baseline: no-protein control; reading: higher = stronger binding
Target: RNA binding protein fox-1 homolog 2, RRM domain, GST-SBP tag (RBFOX2, Homo sapiens, UniProt O43251-10, residues 100-194)
Notes: natural RNA segment, single round, ends assumed
Constant ends, left off below: GGGAGUUCUACAGUCCGACGAUC … UGGAAUUCUCGGGUGCCAA
Residues (chain): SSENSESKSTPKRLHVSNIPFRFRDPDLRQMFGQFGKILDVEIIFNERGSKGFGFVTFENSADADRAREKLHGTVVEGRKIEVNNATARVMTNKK
Oligonucleotide	RBNS enrichment (R)
AUAUCCAAGUGCUUCCUCCAAGUCAACAUGUAUUUCCUCUCCCCAUUUUCAGGCCCUGUGGGGCUCCUGAGGUUCAGUAGCUGGGAUGUUCCCUCUUUCCUUCAAGUGCC	0.655
AAGGUGAAUAGCACAGGUUAGGGUGUGUGCCACACCCCAUGCACCUCAGGGCCAAGCGGGGGCGUGGCUGGCCUUUCAGGUCCAGGCCAGUGGGCCUGGUAGCACAUGUC	0.59
AUUUUAGGUGUAAUUAUGACCUGGCUAUUAUUUUCAUUUGGAAAUUAAGCAUGGCAUAAGAAGAUAUGAUUGUGUGUCAAGGUGACAAGGGGUGAACUUCAGAUGGCUCU	0.407
GUGGACCCAGGGACAGACAUUCAAAGGGACGCCAGCCAUCCUUAGUGACAGGGGCCCCAACUUAGCAUCCCUUCCCUUCCGUUAGGAAGGAGAUGACCGGAAGCAACCCC	0.233
UACCAUUGCUGUUGGGAGGAAGCAGAGGCAGAUGGGAAAGCAGAGAGAGGAGCGCGCUUCCUUUCCUCCCCGCUGCCGCCCACCCUGGGGAGAGACUUUUGCGGGGAGGG	0.843
CUCUUUUAUAUCUAUUGACAAAGGUGUGGGGUCUGGCAAAUGAAGUGUGCUGUUCUCAGCCUAAGAUGCAGCAGCAGCUCUUCCCACACACGCCCCCAGGUCUCCAGGGU	0.343
UUUUGUGGUUACUACCUGGCUUGGCUGGCCUUGCGGUUCACCAGAUUAAUUUACAAACUCCCCCACUUUAUUUUGUGCUAUGUAGAUCUGGCCAUACUUGCAUUAGUGAC	1.58
GGGGCUUGGAAUAGAGAAACCUAAAGAAGCAUCAUCCCCUCCAUCCCCAACUUCCUCAAAGCCCAAAGCCAAGGGAAGGAUAAAUCAAGGCUCAAGGCUUCCCCAGCAAA	0.845
CCUUAGCCUCGCUGUAGAGACUUCUGUCGCCCUGGGUAGAGUUUAUUUUUUUGAUGGCUAAGCUGUUGCUGACACUGAAAAUAAACUAGGGUUUGGCCUGCCCUAUUUCU	0.429
CUAAUAGUAAGUGUGAUUUGAUUCUAAAUAAUAGGGUAGGUUUGGCUAUAACAGAUGCUUUUAAAGCAAAUGAUACCAUUUAAGAAAUUCAGAGAGGCAUUACUUAGAAU	0.67
GGUCAAGCGGGGCUAUGCCCGUCUGGCCCAAAACACAGUCCGUUAUUAACGAGAUGGCCCUGGCAGGCGGGAACAAAUCUGCCUCCAUGCACUGCUUCCUGUAGUCUUUU	0.264
GUGUCUUAAGGAGACUGGUAGGAGGAGGCAUGGAAACCAAAAGGCCGUGUGUUUAGAAGCCUAAUUGUCACAUCAAGCAUCAUUGUCCCCAUGCAACAACCACCACCUUA	0.581

Study 2 — method: RNA Bind-n-Seq; molecule type: RNA; sample: in vitro; tested at: 200 nM; notes: whole 134-nt RNA, ends assumed; together with: 150 mM LiCl; baseline: input library; reading: higher = stronger binding; all molecules: 7-deaza-guanosine replaces G
Target: Fragile X messenger ribonucleoprotein 1, C-terminal low-complexity region (Fmr1, Mus musculus, UniProt P35922)
Constant ends, left off below: GGGAGUUCUACAGUCCGACGAUC … UGGAAUUCUCGGGUGUCAAGG
Oligonucleotide	log2 enrichment
ACCAUGCAGGUGAAAAUCUUUGGGAAGUGGGGCAAGGGGGGGAUAGGGAGGGGGGUAACACUUUGGGAACAGGUGGUCCCAGGUCGUUUC	1.24
GUCCUGUGCUACACAUCGUAUGUACCGAAUCGGAAAAAAAGGUUUUUGGUUUUUUUGGAAAGUAUUAUGUUACGCCGUUCGGAUCUGCAC	-2.72
AAGUCCUGUGCUACACAUCGUAUGUACCGAAUCGGAAAAAAAGGAAAAAGGUUUGGAAAGUAUUAUGUUACGCCGUUCGGAUCUGCACUU	-3.2
CCUGUGCUACACAUCGUAUGUACCGAAUCGGGGUUUUUUUGGGGUGGGGUUUUUUUGGGGAAAGUAUUAUGUUACGCCGUUCGGAUCUGC	-1.34
AGUCCUGUGCUACACAUCGUAUGUACCGAAUCAAACCCCCAAACCCCCAAACCCAAAAAAGUAUUAUGUUACGCCGUUCGGAUCUGCACU	0.137
CAAGUCCUGUGCUACACAUCGUAUGUACCGAAUCGGUUUGGGGUUUGGGUUUGGGAAAGUAUUAUGUUACGCCGUUCGGAUCUGCACUUC	-1.27
CAAGUCCUGUGCUACACAUCGUAUGUACCGAAUCGGUUUUGGGUUUUGGUUUUGGAAAGUAUUAUGUUACGCCGUUCGGAUCUGCACUUC	-1.47

Study 3 — method: EMSA with sequencing; molecule type: double-stranded DNA, one strand shown; sample: in vitro; tested at: 10 and 20 nM; baseline: negative control set to 0; reading: higher = stronger binding
Target: Hepatocyte nuclear factor 3-alpha (Foxa1, Mus musculus, UniProt P35582, residues 1-468, full length assumed)
Notes: whole designed probe, mean of two concentrations, ends assumed
Constant ends, left off below: GTGAGCGGTGCCCATTGATGGGGAAC … TTTCACTGGGATCGTGGGGAC
Target sequence (chain): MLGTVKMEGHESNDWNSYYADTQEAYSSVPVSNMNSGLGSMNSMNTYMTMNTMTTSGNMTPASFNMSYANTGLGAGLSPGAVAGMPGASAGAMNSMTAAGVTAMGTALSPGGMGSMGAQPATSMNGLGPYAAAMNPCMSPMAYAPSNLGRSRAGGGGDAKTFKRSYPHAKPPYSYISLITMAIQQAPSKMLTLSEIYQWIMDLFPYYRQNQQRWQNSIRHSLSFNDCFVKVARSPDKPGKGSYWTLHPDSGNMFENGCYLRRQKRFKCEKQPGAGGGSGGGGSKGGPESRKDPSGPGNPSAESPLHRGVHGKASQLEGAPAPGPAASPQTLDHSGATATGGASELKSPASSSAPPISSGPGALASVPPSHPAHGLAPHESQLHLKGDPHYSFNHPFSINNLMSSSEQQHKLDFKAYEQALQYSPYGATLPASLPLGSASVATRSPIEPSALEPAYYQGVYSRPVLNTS
Oligonucleotide	normalised bound fraction [ratio]
CCAGGTATTATCAGAGGGAGACAGGCAGGGAGCTCCCCAGTGAAGGCTCTAGAGCATCCCATAAAAGGATGAAGAGAGAGACAATCCACAAATGCAATTTTCTATTCAATTTTCATTCTATTATAGTTATATTCATAGTTAATACTGTATGAAAATGTTTATTATAGAGTCACCTGCAAGAGCAAAAATAAGA	0.0388
ACATTCTTTTTGTAATTATTCCAGGTCAAGATAGTGGCCAAAGAGGAAGTTATAAAGCAGACTAGGAAATTCTCCTAAATATATCTCCAACAGAGTAAACAAGAGATTAGGAAACTTGTCCTTCATTCAATTACACCTGGTAAACTTTTTACATTTCCCATTCTATTTTTTGCCTGTGATGTCTAAGTTGAAT	0.319
AACAGAAACAGGCCAGCCAAATTACACAAGGACGTTTACTACAAAAACCTGAACCAGTGAGTAGCAATAAAGGGCTAGTTAAAAAGACTTCGGAAATTACATAGAACATGAATATGTGCATTATAAAGTTTGAGGTAGATCTATTTATGCCACTGTGGAATGATCTCGAAGATAAATAACTGACAAGCAAGAC	0.133
GAAGGAAATAATGGAGCCAACCATGCATATAACCTCAGGGAGAACATTCTAGGTAGAGGGAACAGCAAGTGCAAAGGCCCTGAAGTGGGGGTTTGTTTACCTTGATGCACATTCTGCACACAGGCCAGTACAATTGGAATGGATGGGAAATGTAAAAGAGAGAAGTTGAAAAGGCCAGGTGCAGTGGCTCATG	0.403
CCCGGAGGACCCGACCGGAGAGGGCGAGAGGAGGAGGAGCCCGGGTGGCGGGAAGCGAGCCCAGGTTCCGGCCGCCTTGCGAGGGCACGCAGGGCAAACAGTGCTTTATCTTTCGCAGCGGCGATGAGCTGGTGACTTTTGGGGGTCATCCTGAGGGACATAGACGAAACTGGTTGGGAGGTAGTTAATTGCT	-0.00288
ACGGAAAGTATGTTGCTGGGGCACAACATTCCAACCACCGCTCTCACAGCAGTACAAGTATCTCATTCTTCACCTTTTAAAATATTTGCCTCTAGATTATATAGTGCCTGCAAGATTGCAGAGCACATTCACTGGACACTTTTTCATGGGCTCAGAGGGGGTTTGCATTGCAATGAATCTGAGAGGTCATTCT	-0.055

Single results of other studies
Substance	target	test	system	conditions	scale	measurement	result
PhoQ, residues 284 288 289 292 302 303 SSTMSV	PhoP, residues 12 14 15 18 19 TPLRH (Escherichia coli, UniProt P23836)	Sort-seq, refers to: YFP reporter	E. coli	PhoQ-PhoP variant library, together with: 10 µM Mg2+	baseline: high Mg2+ state, higher = stronger signaling	fold induction	0.726

Some of these lines once more (study 2):
Oligonucleotide	log2 enrichment
CAAGUCCUGUGCUACACAUCGUAUGUACCGAAUCGGUUUGGGGUUUGGGUUUGGGAAAGUAUUAUGUUACGCCGUUCGGAUCUGCACUUC	-1.27
CAAGUCCUGUGCUACACAUCGUAUGUACCGAAUCGGUUUUGGGUUUUGGUUUUGGAAAGUAUUAUGUUACGCCGUUCGGAUCUGCACUUC	-1.47
CCUGUGCUACACAUCGUAUGUACCGAAUCGGGGUUUUUUUGGGGUGGGGUUUUUUUGGGGAAAGUAUUAUGUUACGCCGUUCGGAUCUGC	-1.34
